Measured values gathered from unrelated publications.
Lines come from different studies, so protocols differ. Numbers after ± are the reported error.
Alpha-carbonic anhydrase: Alpha-carbonic anhydrase (Enterococcus faecium, UniProt Q3XYE8)
Ubiquitin carboxyl-terminal hydrolase 39 ZnF-UBD domain: Ubiquitin carboxyl-terminal hydrolase 39, ZnF-UBD domain (Homo sapiens, UniProt Q53GS9)
ZBTB11/CRBN: ZBTB11/CRBN (Homo sapiens, UniProt O95625+Q96SW2)
PLEKHA5 PH domain: Pleckstrin homology domain-containing family A member 5, PH domain (PLEKHA5, Homo sapiens, UniProt Q9HAU0)
CYP2A6: Cytochrome P450 2A6 (CYP2A6, Homo sapiens, UniProt P11509)
USP20 ZnF-UBD domain: Ubiquitin carboxyl-terminal hydrolase 20, ZnF-UBD domain (USP20, Homo sapiens, UniProt Q9Y2K6)

| SMILES | target | assay | test system | conditions | scale | endpoint | result |
| --- | --- | --- | --- | --- | --- | --- | --- |
| NS(=O)(=O)c1nnc(NC(=O)CN2CCC(F)(F)CC2)s1 | Alpha-carbonic anhydrase | CO2 hydration, inhibitor, stopped-flow kinetics | – | – | – | Ki | 0.0198 µM |
| COc1ccc(C[C@H](N)C(=O)N[C@H]2[C@@H](O)[C@H](n3cnc4c(N(C)C)ncnc43)O[C@@H]2CO)cc1 | Nuclear receptor subfamily 5 group A member 2, ligand-binding domain (NR5A2, Homo sapiens, UniProt O00482) | corepressor binding, fluorescence polarization | – | concentration not given, ligand-binding domain, with: SHP peptide | reference: DMSO | coregulator peptide Kd change | no effect |
| O=C(O)Cc1nc2ccccc2[nH]1 | Ubiquitin carboxyl-terminal hydrolase 39 ZnF-UBD domain | – | – | – | – | Kd | > 1000 µM |
| CC1(C(=O)Nc2nnc(S(N)(=O)=O)s2)CC1 | Alpha-carbonic anhydrase | CO2 hydration, inhibitor, stopped-flow kinetics | – | – | – | Ki | 0.0136 µM |
| CCC(C)(NCCc1ccc(OC)cc1)c1cccc(NC2=CC(=O)N(C3CCC(=O)NC3=O)C2=O)c1 (stereo not drawn) | ZBTB11/CRBN | degrader, HiBiT luminescence, measured: endogenous HiBiT-tagged protein | – | – | – | DC50 | 28 µM |
| CC[C@@H]1[C@H](F)C(=O)N[C@@H]1COc1nccc2cc(C(N)=O)c(OC)cc12 | CSNK1G2 (Homo sapiens, UniProt P78368) | ATP-site probe binding, ActivX profiling | THP-1 cell lysate | Lys2 site | – | IC50 | 0.096 µM |
| CCC(C)(NCCc1ccc(OC)c(Cl)c1)c1cccc(NC2=CC(=O)N(C3CCC(=O)NC3=O)C2=O)c1 (stereo not drawn) | ZBTB11/CRBN | degrader, HiBiT luminescence, measured: endogenous HiBiT-tagged protein | – | – | – | DC50 | 27 µM |
| CCn1c(-c2nc3cc(C(=O)N4CCC[C@@H](N)C4)cc(OC)c3n2C)cc2cccnc21 | HTR1B (Homo sapiens, UniProt P28222) | agonist, GTPγS binding | – | – | – | EC50 | 2 µM |
| NS(=O)(=O)c1nnc(NC(=O)CCc2ccc(F)cc2)s1 | Alpha-carbonic anhydrase | CO2 hydration, inhibitor, stopped-flow kinetics | – | – | – | Ki | 0.0312 µM |
| CC(=O)c1c(C)c2cnc(Nc3ccc(N4CCN(CCCOc5ccc(CN6CCC(c7ccc8c(c7)CN(C7CCC(=O)NC7=O)C8=O)CC6)cc5)CC4)cn3)nc2n(C2CCCC2)c1=O (stereo not drawn) | CDK4 (Homo sapiens, UniProt P11802) | protein degradation, degrader, immunoblot | Jurkat | 4 h | – | DC50 | 0.01 µM |
| O=C(O)CCN1C(=O)c2ccccc2S1(=O)=O | Ubiquitin carboxyl-terminal hydrolase 39 ZnF-UBD domain | – | – | – | – | Kd | > 1000 µM |
| C[C@H](Cc1ccccc1)Nc1ncnc2c1ncn2[C@@H]1O[C@H](CO)[C@@H](O)[C@H]1O | adenosine A1 receptor, sheep | competition binding | striatum membranes | low-affinity site, two-site model, with: 0.009 nM [3H]DPCPX | – | Kd | 0.12 ± 0.06 µM |
| CCOc1ccccc1C(=O)CC(SCc1ccc(Cl)cc1)C(=O)O (stereo not drawn) | PLEKHA5 PH domain | PLEKHA5 PI(4,5)P2 binding, fluorescence polarization | – | with: BODIPY-PI(4,5)P2 tracer | – | Ki | 25.4 ± 3 µM |
| O=C(O)Cn1cnc2ccccc2c1=O | Ubiquitin carboxyl-terminal hydrolase 39 ZnF-UBD domain | – | – | – | – | Kd | > 1000 µM |
| CCC(C)(NCCc1cc(C(F)(F)F)cc(C(F)(F)F)c1)c1cccc(NC2=CC(=O)N(C3CCC(=O)NC3=O)C2=O)c1 (stereo not drawn) | ZBTB11/CRBN | degrader, HiBiT luminescence, measured: endogenous HiBiT-tagged protein | – | – | – | DC50 | 13 ± 3.5 µM |
| CCC1(c2cnc[nH]2)Cc2ccccc2C1 | CYP2A6 | binding | – | 20 min, pH 7.4, purified protein, 2% DMSO | – | Kd | 8.72 µM |
| NC(=O)[C@H]1CCCN1C(=O)CCC(=O)O | Ubiquitin carboxyl-terminal hydrolase 39 ZnF-UBD domain | – | – | – | – | Kd | > 1000 µM |
| Cc1ccccc1CC(=O)Nc1nnc(S(N)(=O)=O)s1 | Alpha-carbonic anhydrase | CO2 hydration, inhibitor, stopped-flow kinetics | – | – | – | Ki | 0.022 µM |
| Nc1ncnc2c1ncn2[C@@H]1O[C@H](COP(=O)(O)OP(=O)(O)NP(=O)(O)O)[C@@H](O)[C@H]1O | Inositol-tetrakisphosphate 1-kinase (Homo sapiens, UniProt Q13572) | binding, microscale thermophoresis | – | with: increasing ATP | – | apparent Kd | increased |
| O=C(OCC1COC(Cn2ccnc2)(c2ccc(Cl)cc2Cl)O1)c1ccccc1 (stereo not drawn) | CYP2A6 | binding | – | 20 min, pH 7.4, purified protein, 2% DMSO | – | Kd | 9.13 µM |

| SMILES | target | assay | test system | conditions | scale | endpoint | result |
| --- | --- | --- | --- | --- | --- | --- | --- |
| CN(CCc1ccc(Cl)c(C(F)(F)F)c1)C1(c2cccc(NC3=CC(=O)N(C4CCC(=O)NC4=O)C3=O)c2)CCC1 (stereo not drawn) | ZBTB11/CRBN | degrader | human cells | – | – | DC50 | 1.98 µM |
| NS(=O)(=O)c1cnc(NC(=O)CCC2CCCCC2)s1 | Alpha-carbonic anhydrase | CO2 hydration, inhibitor, stopped-flow kinetics | – | – | – | Ki | 0.674 µM |
| O=C(O)CCn1cnc2ccccc21 | USP20 ZnF-UBD domain | – | – | – | – | Kd | > 1000 µM |
| NS(=O)(=O)c1nnc(NC(=O)CN2CCCC(F)(F)C2)s1 | Alpha-carbonic anhydrase | CO2 hydration, inhibitor, stopped-flow kinetics | – | – | – | Ki | 0.0297 µM |
| O=C(O)CCC(=O)c1cccs1 | Ubiquitin carboxyl-terminal hydrolase 39 ZnF-UBD domain | – | – | – | – | Kd | > 1000 µM |
| O=C1CCC(N2C(=O)C=C(Nc3cccc(C4(NCCc5ccc(Cl)c(C(F)(F)F)c5)CCC4)c3)C2=O)C(=O)N1 (stereo not drawn) | ZBTB11/CRBN | degrader, HiBiT | MIA PaCa-2 (ZBTB11/CRBN-HiBiT knock-in) | 24 h | – | DC50 | 0.62 µM |
| CCC(C)(NCCc1ccc(C(F)(F)F)cc1)c1cccc(NC2=CC(=O)N(C3CCC(=O)NC3=O)C2=O)c1 (stereo not drawn) | ZBTB11/CRBN | degrader | human cells | – | – | DC50 | 0.4 ± 0.37 µM |
| COc1cc2c(cc1OC)C1CC(=O)C(CC(C)C)CN1CC2 (stereo not drawn) | SLC18A2 (Homo sapiens, UniProt Q05940, Y433A) | transporter uptake, fluorescence imaging | – | mutant Y433A, with: 5 µM FFN206 | – | IC50 | 0.23 µM |
| NS(=O)(=O)c1nnc(NC(=O)C(F)CC2CCCCC2)s1 (stereo not drawn) | Alpha-carbonic anhydrase | CO2 hydration, inhibitor, stopped-flow kinetics | – | – | – | Ki | 0.022 µM |
| CCC(C)(NCCc1ccc(Cl)c(Cl)c1)c1cccc(NC2=CC(=O)N(C3CCC(=O)NC3=O)C2=O)c1 (stereo not drawn) | ZBTB11/CRBN | degrader | human cells | – | – | DC50 | 1.2 ± 3.2 µM |
| COC(=O)C[C@@H]1N=C(c2ccc(Cl)cc2)c2c(sc(C(=O)NCCOCCNC(=O)C[C@@H]3N=C(c4ccc(Cl)cc4)c4c(sc(C)c4C)-n4c(C)nnc43)c2C)-n2c(C)nnc21 | Bromodomain-containing protein 3, BD2 (BRD3, Homo sapiens, UniProt Q15059) | – | – | – | – | Kd | 2.7e-06 µM |
| COc1cc(Cl)c(S(=O)(=O)N2CCCC(C)C2)cc1Cl (stereo not drawn) | Melanopsin (OPN4, Homo sapiens, UniProt Q9UHM6) | calcium release, antagonist | CHO cells expressing OPN4 | – | – | Kb | 0.0016 µM |
| O=C1CCC(N2C(=O)C=C(Nc3cccc(-c4cn(CCc5ccc(C(F)(F)F)c(Cl)c5)nn4)c3)C2=O)C(=O)N1 (stereo not drawn) | ZBTB11/CRBN | degrader, HiBiT luminescence, measured: endogenous HiBiT-tagged protein | – | – | – | DC50 | 17 µM |
| CCOc1ccc(C(=O)CC(SCc2ccc(Br)cc2)C(=O)O)cc1 (stereo not drawn) | PLEKHA5 PH domain | PLEKHA5 PI(4,5)P2 binding, fluorescence polarization | – | with: BODIPY-PI(4,5)P2 tracer | – | Ki | 47.9 ± 7.8 µM |
| O=C1CCC(N2C(=O)C=C(Nc3cccc(C(NCCc4ccc(C(F)(F)F)c(Cl)c4)c4ccccc4)c3)C2=O)C(=O)N1 (stereo not drawn) | ZBTB11/CRBN | degrader, HiBiT luminescence, measured: endogenous HiBiT-tagged protein | – | – | – | DC50 | 25 µM |
| O=C(O)Cn1cnc2c(oc3ccccc32)c1=O | USP20 ZnF-UBD domain | – | – | – | – | Kd | 426 µM |
| NS(=O)(=O)c1nnc(NC(=O)CCCCC2CCCCC2)s1 | Alpha-carbonic anhydrase | CO2 hydration, inhibitor, stopped-flow kinetics | – | – | – | Ki | 0.085 µM |
| OC[C@H]1OC(O)[C@H](O)[C@@H](O)[C@@H]1O (stereo partly drawn) | Hexokinase-3 (HK3, Homo sapiens, UniProt P52790, A499V) | substrate inhibition | – | mutant A499V, partial substrate inhibition model, with: ATP 20 mM | – | Ki | 3100 ± 900 µM |
| CN1CCN(c2ccc(Nc3ncc4cc(C#N)c(=O)n(C5CCCC5)c4n3)cc2)CC1 | PAK3 (Homo sapiens, UniProt O75914) | – | – | – | – | IC50 | 0.0692 µM |
